Measurements collected from several papers.
A part holds a random share of what one study measured.

Sample 1
Target: Interferon regulatory factor 7, full length, phosphomimetic (IRF7, Homo sapiens, UniProt Q92985, residues 1-503, S101K/S471D/S472D/S475D/S476D/S477D/S483D/S484D/S487D)
Method: protein-binding microarray
Molecule type: double-stranded DNA, one strand shown
Medium: in vitro
Concentration: 250 nM
Notes: 60-bp whole probe
Together with: salmon DNA 0.4 mg/ml
Relative to: random background probes
Reading: higher = stronger binding
Endpoint: log fluorescence
Shared flanks, not repeated: GCCTAGCAC … GTCTTGATTCGCTTGACGCTGCTG
Target sequence (chain): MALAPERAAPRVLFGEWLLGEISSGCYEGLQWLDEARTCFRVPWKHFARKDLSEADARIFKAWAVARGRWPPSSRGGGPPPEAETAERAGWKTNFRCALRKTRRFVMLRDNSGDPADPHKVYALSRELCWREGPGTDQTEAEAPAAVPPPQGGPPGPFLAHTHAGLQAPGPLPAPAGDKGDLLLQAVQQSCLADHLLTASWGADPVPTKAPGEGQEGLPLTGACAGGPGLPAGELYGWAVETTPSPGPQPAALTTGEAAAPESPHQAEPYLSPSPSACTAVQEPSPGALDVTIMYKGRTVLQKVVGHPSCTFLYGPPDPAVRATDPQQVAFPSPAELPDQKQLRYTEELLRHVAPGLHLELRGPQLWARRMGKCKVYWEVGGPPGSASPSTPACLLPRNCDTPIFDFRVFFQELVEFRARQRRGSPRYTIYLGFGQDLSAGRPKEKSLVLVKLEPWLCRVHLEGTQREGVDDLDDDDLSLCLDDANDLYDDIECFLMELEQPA
Strand = GATCCTTCCCCTCTAGGTTCGTGCTAG; result = 1.62 z-score
Strand = TCTCCTACAGGTTCTCTGAGAGTGCTA; result = -0.0704 z-score
Strand = TCAACTTTTATTTTCAGACTGTGCTAG; result = 0.267 z-score
Strand = TGAGGTTTCCTTTTCCTTTAGTGCTAG; result = 6.74 z-score
Strand = ACCTCTCACGCATCTGAAACCGTGCTA; result = -0.11 z-score

Sample 2
Target: Sal-like protein 4, full length isoform A (SALL4, Homo sapiens, UniProt Q9UJQ4, residues 1-1053)
UniProt Q9UJQ4, sequence (whole entry, looked up): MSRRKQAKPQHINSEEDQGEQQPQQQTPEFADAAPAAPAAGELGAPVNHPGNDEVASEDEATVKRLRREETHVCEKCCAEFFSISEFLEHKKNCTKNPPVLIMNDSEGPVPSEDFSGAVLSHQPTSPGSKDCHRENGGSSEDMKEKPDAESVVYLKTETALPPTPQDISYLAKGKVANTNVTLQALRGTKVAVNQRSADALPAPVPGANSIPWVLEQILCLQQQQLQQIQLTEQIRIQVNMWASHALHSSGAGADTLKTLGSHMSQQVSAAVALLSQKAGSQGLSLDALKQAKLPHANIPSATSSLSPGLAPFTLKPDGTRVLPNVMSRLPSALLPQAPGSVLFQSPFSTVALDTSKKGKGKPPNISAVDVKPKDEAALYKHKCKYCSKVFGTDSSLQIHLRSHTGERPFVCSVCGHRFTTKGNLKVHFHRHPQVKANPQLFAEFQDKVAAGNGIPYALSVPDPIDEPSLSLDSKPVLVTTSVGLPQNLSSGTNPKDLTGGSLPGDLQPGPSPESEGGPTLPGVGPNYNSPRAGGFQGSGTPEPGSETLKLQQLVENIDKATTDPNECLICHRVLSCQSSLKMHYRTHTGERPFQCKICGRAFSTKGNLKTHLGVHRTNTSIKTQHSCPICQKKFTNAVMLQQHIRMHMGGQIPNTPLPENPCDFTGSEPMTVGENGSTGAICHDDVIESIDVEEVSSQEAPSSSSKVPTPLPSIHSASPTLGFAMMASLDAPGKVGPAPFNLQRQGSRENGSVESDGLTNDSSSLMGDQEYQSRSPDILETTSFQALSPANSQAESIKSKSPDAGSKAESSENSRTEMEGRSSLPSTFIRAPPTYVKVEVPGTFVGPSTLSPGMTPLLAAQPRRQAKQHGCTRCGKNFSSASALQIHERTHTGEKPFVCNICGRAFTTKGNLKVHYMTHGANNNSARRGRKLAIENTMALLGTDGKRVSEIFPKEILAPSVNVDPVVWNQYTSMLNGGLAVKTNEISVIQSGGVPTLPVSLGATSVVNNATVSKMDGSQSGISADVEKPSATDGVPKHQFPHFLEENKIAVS
Method: universal PBM
Molecule type: double-stranded DNA, one strand shown
Medium: in vitro
Concentration: 600 nM
Notes: 8-mer, flanks averaged, mean of replicates
Reading: higher = stronger binding
Endpoint: E-score
Strand = ACTTGGCA; result = -0.0518
Strand = TGCGCGAA; result = 0.0539
Strand = TAATAGCA; result = 0.208
Strand = ATCTACGA; result = 0.0287
Strand = GCACCTGA; result = -0.0072
Strand = ATAATCGC; result = 0.233

Sample 3
Target: RING finger protein unkempt homolog, zinc fingers 1-6, GST-SBP tag (UNK, Homo sapiens, UniProt Q9C0B0, residues 30-357)
UniProt Q9C0B0, sequence (30-357, looked up): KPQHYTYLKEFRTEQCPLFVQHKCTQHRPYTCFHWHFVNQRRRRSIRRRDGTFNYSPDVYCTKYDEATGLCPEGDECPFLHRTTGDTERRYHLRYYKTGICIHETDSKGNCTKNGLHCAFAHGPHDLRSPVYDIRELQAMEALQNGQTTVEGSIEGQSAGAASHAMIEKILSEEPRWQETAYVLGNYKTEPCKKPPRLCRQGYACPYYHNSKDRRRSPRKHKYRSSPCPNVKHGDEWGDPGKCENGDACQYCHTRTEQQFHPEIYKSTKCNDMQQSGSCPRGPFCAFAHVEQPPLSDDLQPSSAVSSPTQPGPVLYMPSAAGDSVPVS
Method: RNA Bind-n-Seq
Molecule type: RNA
Medium: in vitro
Concentration: not given
Notes: RNA with constant flanks, human and mouse sites, ends assumed
Relative to: input RNA pool
Reading: higher = stronger binding
Endpoint: bound/input enrichment
Strand = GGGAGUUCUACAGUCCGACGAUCCAUGUUUUUGAAGAAGACUUCAUUUUGAAUAACCUUGAGAAGAAAAGCCUUGGCAAAGACAGCAUUUUAUCUAAUGCAGGCAGCUCACCUAAUGGAUUUUCUGAGAAGUUCUACCUAAUUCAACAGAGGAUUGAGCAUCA; result = 0.0976 ratio
Strand = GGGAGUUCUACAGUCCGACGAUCGUUUUGCCAAAACCUCGGAUGCGUGGCCUUCUGGCCAGGCGUCUGCGAAAUCAUAUGGCUGUAGCAUUCGUGCUAUCCCUGGGGGUUGCAGCUUUGUAUAAGUUUCGUGUGGCUGAUCAACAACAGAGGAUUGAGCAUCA; result = 0.0806 ratio
Strand = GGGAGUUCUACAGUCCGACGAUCUUGCAUACACACACCCCCACCCCAGAGUGUUCUCAGUAUGUCAGAGAAAGUGCCACAGCAUUAGGACGGGAGCUUGGAGAACGUUUUCUAGAAAAGGGUUAGCUUCCUGUUGGCAUGAAACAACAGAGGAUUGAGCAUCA; result = 0.744 ratio
Strand = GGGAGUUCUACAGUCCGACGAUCGGGUACGAUGUUUUGGCUAAUCCCCCAGGACCAGAAGACCCAGAUGAGGAAGAGGAUACCUAUAGCGAUUUGUUUGAGUUUGAGUUUGCUGAAAGCUCCCUCUUGCCGUGUUAUAACAUCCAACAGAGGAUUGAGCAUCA; result = 1.2 ratio
Strand = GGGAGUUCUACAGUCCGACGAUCCAUGGACAGCAAGCCUUGGGUAACCGGACCAGGCCAAGGGUCUACAAUUCUCCAACAAAUAGCUCCUCUACCCAGGAUUCUAUGGAGGUUGGCCACAGUCACCACUCCAUGACAUCCCUGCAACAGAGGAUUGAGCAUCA; result = 0.0634 ratio
Strand = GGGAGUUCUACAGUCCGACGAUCCUCCAUUUCUUCCCAUGCUGUAACCCCAGGCUCCACCAGCUGUUCCCCAGUGAUGUUACCUAGCUUCCCUCUACCGUUGUCUACUGACCAUUUCCACUACAUGCCUUUCCUACCUUCCCUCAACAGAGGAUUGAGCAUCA; result = 0.532 ratio
Strand = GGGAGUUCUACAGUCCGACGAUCGCUGGUCAUCCUCUGGCCCAGAAUGAACGUUGUCUUCACAUGUUUUUACAGGAUGAAAUUAUAGAUAAAAGCUAUACUCCAUCUAAAAUAAGACAUGCCUGAGUUUGGUGAGAAGAAGCACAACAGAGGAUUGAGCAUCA; result = 0.258 ratio
Strand = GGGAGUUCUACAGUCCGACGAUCCAGCGGCAGUCUUUCCCACCAGUGUGCACCCACAACAUGCUGGACGACUCCUCAGACCCCAUCUUGACCACCAUCCGCCGAAUUGGCCUUUUCAACAGCAGUGCCGACCGUGUGAAGGUGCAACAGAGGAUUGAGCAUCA; result = 0.122 ratio

Single results of other studies
Substance = PhoQ, residues 284 288 289 292 302 303 AANNSF; target = PhoP, residues 12 14 15 18 19 QYCSL (Escherichia coli, UniProt P23836); test = Sort-seq, refers to: YFP reporter; test system = E. coli; setting = PhoQ-PhoP variant library, together with: 10 µM Mg2+; how to read = relative to: high Mg2+ state, higher = stronger signaling; endpoint = fold induction; result = 5.2

A few entries again (single results of other studies):
Substance = PhoQ, residues 284 288 289 292 302 303 AANNSF; target = PhoP, residues 12 14 15 18 19 QYCSL (Escherichia coli, UniProt P23836); test = Sort-seq, refers to: YFP reporter; test system = E. coli; setting = PhoQ-PhoP variant library, together with: 10 µM Mg2+; how to read = relative to: high Mg2+ state, higher = stronger signaling; endpoint = fold induction; result = 5.2
